# Experimental data pooled from the literature.
# Every numbered part comes from another study and shows a few of its results, in no order. Positions count from the first letter of the parent shown.

# Study 1 — target: CCNA2, cyclin fold, Cln2 fusion (human); method: yeast growth competition, sequencing; sample: yeast; setting: strong parent motif; relative to: not given; reading: higher = stronger binding
# Parent: GMNC docking peptide (human); KNAKRNLSSEFAN; partner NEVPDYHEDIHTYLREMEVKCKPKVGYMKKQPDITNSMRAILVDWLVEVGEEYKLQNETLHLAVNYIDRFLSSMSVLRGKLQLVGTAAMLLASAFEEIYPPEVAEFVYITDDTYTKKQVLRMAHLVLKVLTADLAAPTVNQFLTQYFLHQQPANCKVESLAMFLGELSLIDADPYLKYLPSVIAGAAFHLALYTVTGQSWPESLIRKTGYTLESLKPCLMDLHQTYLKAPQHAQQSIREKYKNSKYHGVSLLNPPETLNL
Variant,normalised enrichment score
A3Y,4.06
N6F,0.215
A12E,5.62
A3H,1.58
A12N,5.63
K4R,6.1
E10G,1.13
L7H,0.501
N2G,6.07
A3K,0.993
L7T,0.368
F11Y,2.82
A3D,0.641
L7V,0.441
F11V,0.16
L7P,0.07
R5V,0.129
N6R,4.33
R5H,0.551
S9F,5.65
N2S,5.86
K4V,4.8
K4A,4.11
E10D,3.56
N2L,4.36

# Study 2 — method: protein-binding microarray; form: double-stranded DNA, one strand shown; sample: in vitro; concentration: 2200 nM top; setting: 60-bp whole probe; together with: salmon DNA 0.4 mg/ml; relative to: random background probes; reading: higher = stronger binding; all sequences stand within: GCCTAGCAC … GTCTTGATTCGCTTGACGCTGCTG
# Target: Interferon regulatory factor 7, full length, phosphomimetic (IRF7, Homo sapiens, UniProt Q92985, residues 1-503, S471D/S472D/S475D/S476D/S477D/S483D/S484D/S487D)
# UniProt Q92985, sequence (whole entry, unmodified, looked up): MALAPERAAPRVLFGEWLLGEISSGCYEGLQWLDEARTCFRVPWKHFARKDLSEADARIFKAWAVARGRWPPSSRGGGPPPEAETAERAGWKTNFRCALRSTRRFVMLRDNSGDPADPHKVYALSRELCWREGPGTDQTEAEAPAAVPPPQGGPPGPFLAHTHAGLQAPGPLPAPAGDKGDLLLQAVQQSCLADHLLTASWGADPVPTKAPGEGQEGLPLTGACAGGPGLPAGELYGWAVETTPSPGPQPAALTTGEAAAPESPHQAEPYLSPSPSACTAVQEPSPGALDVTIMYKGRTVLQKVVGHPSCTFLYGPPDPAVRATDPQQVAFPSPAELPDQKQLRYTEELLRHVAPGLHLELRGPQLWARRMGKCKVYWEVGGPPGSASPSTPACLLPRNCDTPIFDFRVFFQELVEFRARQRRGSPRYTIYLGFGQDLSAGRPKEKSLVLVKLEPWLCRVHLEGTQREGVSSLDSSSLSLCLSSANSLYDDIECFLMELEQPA
Sequence,fitted relative affinity [z-score]
GACGGTTTCGGGACTGAGGACGTGCTA,3.33
TTAGGTTTCGCCACTGGGTTAGTGCTA,1.69
TACTACATATCACCTCAATCGTGCTAG,1.57
TGGGTCTTGGTTCTCAGCTTGTGCTAG,0.272
GACGATATCAGTCTCGACACGTGCTAG,0.345
GACGGTTTCCTTTTCCTGCCGTGCTAG,5.24
TTGTTTCCATTTTCTGAATGCGTGCTA,6.83
TAAGGTATCGACTTTCGGTTAGTGCTA,5.89
TTAGGTCTCCTACTGCTTTAGTGCTAG,0.502
GACGGACTGGACCTTCGGGACGTGCTA,-0.912
TTAGATTTTAGTTTCGATTAGTGCTAG,6.97
TTAGGACTGGGACCGGGTTAGTGCTAG,-0.86
GACGGACTGTGTATCGGGACGTGCTAG,-0.353
GACGGGCTGGACTTTCGGGACGTGCTA,1.65
TTTGGTATCGGTTTCGGTTAGTGCTAG,7.67
GACGATTCCAGTTTCGGGACGTGCTAG,4.59
GACGATATCGACTATCGGGACGTGCTA,0.13
GACGATAGCGGGACTGGAGACGTGCTA,-0.62

# Study 3 — method: RNA Bind-n-Seq; form: RNA; sample: in vitro; concentration: 365 nM; relative to: no-protein control; reading: higher = stronger binding
# Target: RNA binding protein fox-1 homolog 2, RRM domain, GST-SBP tag (RBFOX2, Homo sapiens, UniProt O43251-10, residues 100-194)
# Setting: natural RNA segment, single round, ends assumed
# Construct (chain): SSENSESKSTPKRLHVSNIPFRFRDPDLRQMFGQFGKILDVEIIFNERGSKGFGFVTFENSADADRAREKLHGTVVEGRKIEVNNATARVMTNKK
Sequence,RBNS enrichment (R)
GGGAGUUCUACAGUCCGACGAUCGUUGUUCAUUUCAGCCUCUGGAUGGCUGGCUGCCUUAAACACAAUCAAUUUCAAAGCUCCAUUUCAUAAAGGGGCUACUUUGAAGGAGUUAAGAUGGAAGACUUCCUUCUUGGAAUUCUCGGGUGCCAA,0.244
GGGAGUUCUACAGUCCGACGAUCGGCGGGGAAAUGGCUGUGCGGUGCGGGACGGAAGACUGGAAACCCUCAAAGCAUCUGACUCACCUGCAUGAUCACAAGCUUUCUUUGACGGUUUCUCCCAUCCGUGUUCCUGGAAUUCUCGGGUGCCAA,9.86
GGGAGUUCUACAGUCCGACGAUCUUUAGCAAUAUGCUCUACAUAAAAUCACUACAGAGAUACUAGUGGGGAAGACGAUUAACACACCUCUUACAGUAAUACUGCCUGUUAUUGGUAUAGCAGUGGUAUUUGCAUGGAAUUCUCGGGUGCCAA,1.19
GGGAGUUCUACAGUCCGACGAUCAAGAGCUAUUACAAUCCAAAUAUUGCCGUUUCAUAAAUGUAAUAAGUAAUACUAAUUCACAGAGUAUUGUAAAUGGUGGAUGACAAAAGAAAAUCUGCUCUGUGGAAAGAUGGAAUUCUCGGGUGCCAA,0.414
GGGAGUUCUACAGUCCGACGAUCGAGGGCUGGAGCAUGGCACGGCAUGGAUUAACACGGCAGAGGAACAAAGGUGUGCUCUGAGCUUCUUCAUAUUUCACCUUCACCCUCACCUGUGUUCUCUUCCCUCUCUCUGGAAUUCUCGGGUGCCAA,1.05
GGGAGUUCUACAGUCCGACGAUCGCUUGCCGUCUGGGAUGCUCAGUAGAGUCAAGGGACCCAGCAGAGAUGCAUGAGACAAGAUGGAUUGCGAGCAAUUAGUGGAUGUGUGCACUUUUUGUUCAGAGUUUAAGUGGAAUUCUCGGGUGCCAA,6.55
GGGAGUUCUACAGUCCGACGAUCGUCAGCCCUGCCUCACCAUGCCUGCAGGAGGCUGUCCAGGGAGCAGGUCUGUGUGCCCAUCAGCAGGUUCCCAUGGCUGUCACUGCCCACUCAUUUCCACAGUUAGAUACUGGAAUUCUCGGGUGCCAA,0.752
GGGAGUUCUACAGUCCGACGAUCUUUACACAAUUCUGAAAUCUGUUGCUUUUGUAAACAAAUUGUUUGAUCUUAGUGAUCCCCCUACUACUACCACCAAUUCACUUCACAAAGUCAGUUAUGAGUCUACCAGAUGGAAUUCUCGGGUGCCAA,0.572
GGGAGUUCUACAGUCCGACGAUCCCCUUCCCUGCCUGUGUCUCUUCCCAAACCCCUGUAGGGGUGGUGAGAAGAGGAGGGGGGGAGGGGACACGAUCCCUCCUCAGGCAUCUGGGAAGGCCUUGCCCCCACGGUGGAAUUCUCGGGUGCCAA,0.222
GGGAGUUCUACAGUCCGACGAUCACAUCAGUUUGAUAUUCUCUUAAAGGAAAUAAAUAUUCAAGAACUGAUUAUGUUCUAACAUGAUUAUUUCAUGGUGUUACAUAGGCCUCAAUUUUUUCACAGAAAGAUUUUGGAAUUCUCGGGUGCCAA,0.334
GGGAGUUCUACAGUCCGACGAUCCAUUUUUUCCUCUAAUUCAUAACUUACUGAAUUUUUAUGGAAAAUGUCAGCAUCUGUUCUAUCAGUAAGAAAGAGCAGGCAGGACACAUUAAAGGUUCUGUGUCAGCUAUUGGAAUUCUCGGGUGCCAA,0.276
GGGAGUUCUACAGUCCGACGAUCGCCAUCUACUUGGAAUGGGCCCCAGGACUGUGGUAUUUGCCUGGGCCAGGAAAGGAUAAGAAAUCCUGUCAUGUGAAGACAGCUUGAGAGGCUUGAGAAAAGUGGGGCUGUGGAAUUCUCGGGUGCCAA,1.24

# Further values, each from its own experiment
Molecule,target,assay,system,setting,scale,quantity,result
"PhoQ, residues 284 288 289 292 302 303 GASLAW","PhoP, residues 12 14 15 18 19 IFFTR (Escherichia coli, UniProt P23836)","Sort-seq, measured: YFP reporter",E. coli,"PhoQ-PhoP variant library, together with: 10 µM Mg2+","relative to: high Mg2+ state, higher = stronger signaling",fold induction,5.35
